# Experimental data gathered from unrelated publications.
# A part holds a random share of what one study measured. Positions count from the first letter of the parent shown.

# Study 1 — technique: DHFR PCA, deep sequencing; medium: yeast; with: (+)-ABA 200 µM; relative to: wild-type fitted maximum; reading: higher = stronger binding
# Target: ABI1, truncated, D143A, DHFR fusion (Arabidopsis thaliana)
# Notes: methotrexate growth selection, single substitutions
# Parent: PYL1, truncated, DHFR fusion (Arabidopsis thaliana); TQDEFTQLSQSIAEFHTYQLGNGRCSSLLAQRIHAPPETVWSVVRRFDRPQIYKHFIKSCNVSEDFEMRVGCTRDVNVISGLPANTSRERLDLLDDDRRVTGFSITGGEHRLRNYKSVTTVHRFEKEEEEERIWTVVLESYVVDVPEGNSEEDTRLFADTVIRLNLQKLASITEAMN; partner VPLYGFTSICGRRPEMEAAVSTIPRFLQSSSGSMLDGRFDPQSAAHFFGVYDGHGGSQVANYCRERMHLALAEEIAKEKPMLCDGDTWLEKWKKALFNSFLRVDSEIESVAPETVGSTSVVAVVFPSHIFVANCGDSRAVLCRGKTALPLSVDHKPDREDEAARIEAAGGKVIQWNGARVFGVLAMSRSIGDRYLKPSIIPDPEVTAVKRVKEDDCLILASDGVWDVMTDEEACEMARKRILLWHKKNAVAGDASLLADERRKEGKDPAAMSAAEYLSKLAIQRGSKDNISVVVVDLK
Substitution,relative binding score [%]
L164P,-5.96
D65R,98.3
Q2T,99.2
F5H,89.4
P36I,76.2
Q7P,87.6
E89R,1.23
E131K,114
D97A,108
E129I,98.7
G81L,8.35
N85R,105
H34Y,94.8
G23A,93.8
T1N,97.2
H16R,2.38

# Study 2 — technique: protein binding microarray; form: double-stranded DNA, one strand shown; medium: in vitro; tested at: not given; relative to: not given; reading: higher = stronger binding
# Target: Histone acetyltransferase KAT6A, winged helix 2, GST fusion (KAT6A, Homo sapiens, UniProt Q92794, residues 85-181)
# Notes: 8-mer, flanks averaged, mean of 2 arrays, mostly near background
# Construct (chain): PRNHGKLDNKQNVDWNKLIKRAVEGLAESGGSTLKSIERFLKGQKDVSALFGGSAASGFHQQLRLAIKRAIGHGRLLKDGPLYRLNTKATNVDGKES
Strand,E-score
AACTACGC,-0.0101
CGTCGAGC,0.0898
ACTAAACC,-0.0041
CATCTCTA,-0.0927
CCATTAAA,0.00997
ACCAGGCG,0.135
AATTAAGC,0.117
CCGCACAA,0.0246
ACTGGGGA,-0.245
AGGAAGGG,-0.0695
CAATAGAC,-0.0947
AACCCTTC,0.0556
ATATTGAG,-0.00137
AGATCAAC,-0.00775
TGATCGCA,0.0809
CCAGACCC,-0.12
ACCCCTAT,-0.208
TCCGCACA,-0.0581
CTGCTTCA,0.062
AAACTTGG,-0.0725

# Study 3 — target: CCNE1, cyclin fold, Cln2 fusion (human); technique: yeast growth competition, sequencing; medium: yeast; notes: strong parent motif; relative to: not given; reading: higher = stronger binding
# Parent: ASZ1 docking peptide (human); GFGFLLFICKLTF; partner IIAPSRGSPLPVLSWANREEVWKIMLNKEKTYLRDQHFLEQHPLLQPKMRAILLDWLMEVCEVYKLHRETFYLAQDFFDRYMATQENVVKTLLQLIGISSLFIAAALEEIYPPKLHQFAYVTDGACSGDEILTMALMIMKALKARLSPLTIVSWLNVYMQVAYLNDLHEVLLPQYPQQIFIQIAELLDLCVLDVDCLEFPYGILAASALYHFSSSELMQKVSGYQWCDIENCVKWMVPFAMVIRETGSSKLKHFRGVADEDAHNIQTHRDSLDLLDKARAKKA
Substitution,normalised enrichment score
L6A,1.1
I8A,0.838
F4A,0.651
L11A,1.38
L5A,0.846
F13A,1.39

# Study 4 — technique: universal PBM; form: double-stranded DNA, one strand shown; medium: in vitro; tested at: not given; reading: higher = stronger binding
# Target: Sal-like protein 4, full length isoform B (SALL4, Homo sapiens, UniProt Q9UJQ4-2, residues 1-616)
# Notes: 8-mer, flanks averaged, mean of replicates
Strand,E-score
GATTAAAA,0.32
GGGGGCGA,-0.244
CTCCCGAA,-0.146
ACCCGGAA,-0.173
ACATGGAG,-0.0805
CCGATGTC,-0.161
ACAGAGGA,-0.0364
GAACGCCC,-0.189
CGACCATC,-0.208
CTTCGATC,-0.0972
CTAAGGAG,-0.175
AGGAGCGG,-0.3
AGCTCTGG,-0.128
GTGCCCGA,-0.194
CCCAACCA,-0.12
CTCATTGC,0.0286
GAGATGAC,-0.0933
AGTGGGAT,0.00379
CCATGACA,0.0144
AGTTCCTC,-0.116
CAAGATGG,-0.0658
ATAGAGCA,0.143
CGAGACCC,-0.344
GCGCACCA,-0.149

# Study 5 — technique: RNA Bind-n-Seq; form: RNA; medium: in vitro; tested at: 15 pmol; notes: 4-mer, random 30-nt RNA, single round; with: 3 µM RocA, 2 mM AMP-PNP; relative to: mean of 4-mers; reading: higher = stronger binding
# Target: Eukaryotic initiation factor 4A-I (EIF4A1, Homo sapiens, UniProt P60842, residues 1-406, full length assumed)
# UniProt P60842, sequence (whole entry, looked up): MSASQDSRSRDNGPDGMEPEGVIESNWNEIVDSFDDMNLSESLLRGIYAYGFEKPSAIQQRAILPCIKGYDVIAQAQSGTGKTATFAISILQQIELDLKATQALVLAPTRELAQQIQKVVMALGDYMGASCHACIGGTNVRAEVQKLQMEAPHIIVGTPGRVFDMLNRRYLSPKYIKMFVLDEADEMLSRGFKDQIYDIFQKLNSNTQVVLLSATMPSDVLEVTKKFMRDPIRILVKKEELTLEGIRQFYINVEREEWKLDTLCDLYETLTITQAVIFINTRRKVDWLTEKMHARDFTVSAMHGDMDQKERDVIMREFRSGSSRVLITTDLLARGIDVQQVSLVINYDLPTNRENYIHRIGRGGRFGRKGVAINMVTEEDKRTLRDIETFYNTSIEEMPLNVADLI
Strand,4-mer enrichment Z-score
AGUG,1.73
GAGA,2.34
CCAA,-0.767
UAGC,-0.45
CCGG,-0.179
UGAG,1.87
UAAC,-0.815
CCCG,-0.58
CAUC,-1.64
CUUA,-0.788
UAUU,-0.016
UAUA,0.254
UCUC,-1.31
UCGC,-0.873
CCAU,-1.37
CACC,-1.4

# Study 6 — technique: protein-binding microarray; form: double-stranded DNA, one strand shown; medium: in vitro; tested at: 2200 nM top; notes: 60-bp whole probe; with: salmon DNA 0.4 mg/ml; relative to: random background probes; reading: higher = stronger binding; shared flanks, not repeated: GCCTAGCAC … GTCTTGATTCGCTTGACGCTGCTG
# Target: Interferon regulatory factor 7, full length, phosphomimetic (IRF7, Homo sapiens, UniProt Q92985, residues 1-503, S471D/S472D/S475D/S476D/S477D/S483D/S484D/S487D)
# UniProt Q92985, sequence (whole entry, unmodified, looked up): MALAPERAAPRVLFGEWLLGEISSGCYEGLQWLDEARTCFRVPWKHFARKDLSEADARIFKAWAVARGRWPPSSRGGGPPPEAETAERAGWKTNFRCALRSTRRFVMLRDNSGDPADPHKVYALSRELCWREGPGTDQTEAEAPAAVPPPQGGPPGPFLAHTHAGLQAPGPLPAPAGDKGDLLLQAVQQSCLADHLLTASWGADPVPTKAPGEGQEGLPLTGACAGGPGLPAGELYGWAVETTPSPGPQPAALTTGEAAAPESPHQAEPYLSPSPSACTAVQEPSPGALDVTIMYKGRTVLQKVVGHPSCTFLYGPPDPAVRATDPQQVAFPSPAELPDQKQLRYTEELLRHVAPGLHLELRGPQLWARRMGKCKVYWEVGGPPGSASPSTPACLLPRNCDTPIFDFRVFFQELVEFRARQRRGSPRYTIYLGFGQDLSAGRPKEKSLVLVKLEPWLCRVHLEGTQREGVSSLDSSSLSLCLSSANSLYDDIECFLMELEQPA
Strand,fitted relative affinity
GACGATATCGACACTGGGGACGTGCTA,0.0111 z-score
GACGGTTGCCTTTCCCTGACGTGCTAG,1.12 z-score
CTTTTATGCTCTTTCTACATGTGCTAG,2.13 z-score
TTGTAAATCTTTTTCCCTATGTGCTAG,1.08 z-score
GACGGTTCCAGTTTCGGGACGTGCTAG,4.57 z-score
TTAGGAGTGCTTTTCCTTTAGTGCTAG,0.772 z-score
CTAGTTCTGCTTTGCCTTCAGTGCTAG,2.74 z-score
GACGATATCAGTATCGAGAGGTGCTAG,0.159 z-score
GACGGACTGGGTATCGCGACGTGCTAG,-0.566 z-score
CAGCATCTGCAACATCTACAAGTGCTA,0.0181 z-score
TTAGGGATCGGTTTCGGTTAGTGCTAG,5.64 z-score
TTAGGTCTCCTTTTCCTGTAGTGCTAG,1.52 z-score
TCACTAATCTCACTCTGACTGTGCTAG,0.932 z-score
TGTGTTTTCACTTTTCCTACGTGCTAG,6.56 z-score
TTAGATCTCAGTTTCGAATAGTGCTAG,2.36 z-score
GATGGTTCCCTTTTCCTGACGTGCTAG,2.75 z-score

# Study 7 — technique: RNA Bind-n-Seq; form: RNA; medium: in vitro; tested at: not given; relative to: input RNA pool; reading: higher = stronger binding
# Target: RING finger protein unkempt homolog, zinc fingers 1-6, GST-SBP tag (UNK, Homo sapiens, UniProt Q9C0B0, residues 30-357)
# UniProt Q9C0B0, sequence (30-357, looked up): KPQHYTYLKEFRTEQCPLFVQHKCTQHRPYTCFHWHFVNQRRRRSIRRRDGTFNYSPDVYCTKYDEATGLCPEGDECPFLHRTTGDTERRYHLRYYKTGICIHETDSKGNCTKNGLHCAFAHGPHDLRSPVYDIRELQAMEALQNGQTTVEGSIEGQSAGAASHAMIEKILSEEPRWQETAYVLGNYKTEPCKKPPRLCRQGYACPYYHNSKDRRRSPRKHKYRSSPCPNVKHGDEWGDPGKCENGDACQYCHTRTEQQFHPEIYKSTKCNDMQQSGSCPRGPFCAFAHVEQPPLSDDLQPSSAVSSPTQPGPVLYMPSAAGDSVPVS
# Notes: RNA with constant flanks, human-mouse chimeric sites, ends assumed
# Shared flanks, not repeated: GGGAGUUCUACAGUCCGACGAUC … CAACAGAGGAUUGAGCAUCA
Strand,bound/input enrichment
UAAGUUAAGCUUUUAAUCUUUGUAAAUUCUUAACAUUUUUAUAUUGCCAUGUUUAUUUUUUUUAGAUAAUUUGGUUCAUUAAGUACAUAGCUAAGGUAAUGAACAUCUUUUUCAGUAAUU,8.22 ratio
CCCCAAUUACCAUCUGUGGUCUGGAACUGCACUCUCUUUAAAGUUUUACAUGUAUACAUUUUAGGGCUGUAGAUUUAUUUUCCUGGUUUUGUUUUUCAUUGCUGACUUUUGAGCACAGAA,2.03 ratio
CAGGGCAUCAUCUCUCGUGCUGUUAGACACCUUUUUAAGAGUAUUGAUGAGAAAAAGACCUCAGCGAUUAAAAACGGGCUGCCCCCUCCUGAAUUCAAAGUGAAUGCCCAGUUCCUAGAG,0.451 ratio
UUGAAAACUGAUUCAAGUAAGUUUGAGUAUCACAAUGUUAGCUUUCUAAUUCCAUAAAAGUACUUGGUUUUUACAGUUUAUAAUCUGCAAUCCAUCAAGCGCCAUUUAGAUCAGCUUACU,0.345 ratio
CUGUGACCACAAGAUCCUACCUGAGUGGCAGCUGAAGUUGACUCCCUCUCCUUGCCUGAACCCCCCCCCACUGCCCCCCCAUCCCCCAGUGUCGGCUAUUCUCUGGUCAGCAGACAGUUC,0.44 ratio
CCUGCUCAGAUCACCAUGAAAGUAAUCCAAGGCCUAUAUAGUGGGGUCACCACAGUGGAACUAGAUACCCUGGCUGCUGAGACAGCCGCGACCUUGACUACUAAGCACCCUGACUAUGCC,0.164 ratio
GUGACUGACAUUAAAAUUUCCCCUCAGCAAAGAAGUGUAGCAGUGACCAUAAUUCCAUCUGUGGUGAGUGCCAGUCAGAUUGUGGAGCUGGUCCCAGACCUCAGUUUAGACAUGGGAACU,0.383 ratio
GAUGAUAAUCACACAAAUGUGGCACUUUUACAUGACCAGCCUUGGGAUUCUUUUCCUGAUUAGUAUUCUCCCUGGAACCACUGGUCAAGGGGAAUCAAGACGACAAGAACCCGGGGACUU,0.129 ratio

# Some of these lines once more (study 2):
Strand,E-score
ACCAGGCG,0.135
AATTAAGC,0.117
CCGCACAA,0.0246
ACTGGGGA,-0.245
AGGAAGGG,-0.0695
CAATAGAC,-0.0947
AACCCTTC,0.0556
ATATTGAG,-0.00137
AGATCAAC,-0.00775
TGATCGCA,0.0809
